Measurements collected from several papers.
Every numbered part comes from another study and shows a few of its results, in no order. Substitutions count along the parent as printed.

Block 1
Target: Histone acetyltransferase KAT6A, winged helix 1, GST fusion (KAT6A, Homo sapiens, UniProt Q92794, residues 1-85)
Method: protein binding microarray
Molecule type: double-stranded DNA, one strand shown
Matrix: in vitro
Tested at: not given
Setting: 8-mer, flanks averaged, mean of 2 arrays, mostly near background
Reference: not given
Direction: higher = stronger binding
Residues (chain): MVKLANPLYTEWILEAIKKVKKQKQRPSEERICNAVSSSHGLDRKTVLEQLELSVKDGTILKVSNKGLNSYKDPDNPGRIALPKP
| Oligonucleotide | E-score |
| --- | --- |
| AATGCATA | -0.148 |
| GCGTTGGA | 0.139 |
| GGGTAAAA | -0.0721 |
| CAGTTCGG | 0.145 |
| GCGAAGAC | 0.167 |
| CCCAGGGC | -0.0526 |
| TAGACAGA | -0.16 |
| ATTAAGAA | -0.0682 |
| CTAACCAC | -0.155 |
| CTCTCACA | -0.107 |
| ATCTGGCG | -0.139 |
| AGGGTTCG | -0.0906 |
| GTAGCAGA | -0.215 |
| AGCTAGTC | -0.0853 |
| GAGGCCAA | -0.319 |
| ATAACAGC | 0.0207 |
| TATGTGGA | -0.171 |
| ACCCGCTA | 0.235 |
| TCAACTGA | -0.227 |
| CCTCGAGC | -0.0256 |
| ATGCCCAG | -0.225 |
| ATCCTATC | 0.00084 |
| ATCCGGCG | 0.374 |
| ATAGGCCA | 0.0246 |
| GTGGGAGA | -0.226 |

Block 2
Target: ABI1, truncated, D143A, DHFR fusion (Arabidopsis thaliana)
Method: DHFR PCA, deep sequencing
Matrix: yeast
Setting: methotrexate growth selection, single substitutions
Added: (+)-ABA 0 µM
Reference: wild-type fitted maximum
Direction: higher = stronger binding
Starting sequence: PYL1, truncated, DHFR fusion (Arabidopsis thaliana); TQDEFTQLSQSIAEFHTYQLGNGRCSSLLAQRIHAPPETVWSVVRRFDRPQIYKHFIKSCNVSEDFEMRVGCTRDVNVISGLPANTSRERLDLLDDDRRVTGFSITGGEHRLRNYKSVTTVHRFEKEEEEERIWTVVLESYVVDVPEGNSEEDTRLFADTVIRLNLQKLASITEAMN
| Substitution | relative binding score [%] |
| --- | --- |
| S63F | 2.73 |
| N61S | 47 |
| E128G | 63.5 |
| L169F | -9.73 |
| T160D | 0.706 |
| W134Y | 63.8 |
| T17E | -3.82 |
| Y115S | 4.33 |
| C60Y | 6.5 |
| T173Y | -5.37 |
| N114R | 2.33 |
| S9E | 41.4 |
| G71R | 0.0886 |
| P146G | 8.94 |
| V143N | -3.92 |
| D144H | 1.95 |
| L156F | -6.58 |
| L138M | 3.93 |

Block 3
Target: JUN, bZIP domain (human)
Method: DHFR protein complementation
Matrix: yeast
Setting: single substitutions, most at no-binding floor
Reference: wild-type JUN-FOS pair
Direction: higher = stronger binding
Starting sequence: JUN, bZIP domain (human); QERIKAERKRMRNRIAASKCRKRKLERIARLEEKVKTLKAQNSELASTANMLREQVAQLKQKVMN; partner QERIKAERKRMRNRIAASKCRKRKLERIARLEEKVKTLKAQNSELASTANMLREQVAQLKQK
| Substitution | binding fitness [natural log] |
| --- | --- |
| K34C | -0.119 |
| R30P | -1.15 |
| I28H | -0.986 |
| Q41I | -0.175 |
| L31M | -0.86 |
| A49E | -0.586 |
| S47N | -0.152 |
| L45W | -1.07 |
| E44A | -0.291 |
| K39E | 0.0309 |
| K39Y | -0.508 |
| A46S | -0.27 |
| E33F | -0.545 |
| M51Q | -0.148 |
| V56H | -1.01 |
| R53A | -0.381 |
| E33I | -0.529 |
| E32K | -0.447 |
| N42Y | -0.864 |
| A29Y | -0.463 |
| K34L | 0.0228 |
| T48K | -0.423 |
| S43I | -0.164 |
| E54L | -0.5 |
| E33Y | -1.09 |

Block 4
Target: CEP164, C-terminal peptide (human)
Method: DHFR complementation, deep sequencing
Matrix: yeast
Setting: single substitutions, model-inferred values
Reference: wild type
Direction: higher = weaker binding
Starting sequence: PDZK1, PDZ domain 2 (human); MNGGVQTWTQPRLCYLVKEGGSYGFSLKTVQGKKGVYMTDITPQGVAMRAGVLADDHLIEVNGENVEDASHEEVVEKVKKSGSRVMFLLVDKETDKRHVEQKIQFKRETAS; partner HNRVKVYRF
| Substitution | binding free energy change [kcal/mol] |
| --- | --- |
| P11V | 0.378 |
| Q10V | 0.19 |
| A110I | -0.119 |
| T39E | 0.607 |
| E67I | -0.00502 |
| C14A | 0.0738 |
| E64A | 0.125 |
| A54M | 0.191 |
| Q10A | -0.0815 |
| V46K | 0.683 |
| V46R | 0.888 |
| L16F | 1.33 |
| T42H | 0.388 |
| K28H | 0.613 |
| E108M | -0.277 |
| V36P | 1.45 |
| V99C | -0.137 |
| S70H | -0.0514 |
| E93M | -0.11 |

Block 5
Target: RNA binding protein fox-1 homolog 2, RRM domain, GST-SBP tag (RBFOX2, Homo sapiens, UniProt O43251-10, residues 100-194)
Method: RNA Bind-n-Seq
Molecule type: RNA
Matrix: in vitro
Tested at: 365 nM
Setting: natural RNA segment, single round, ends assumed
Reference: no-protein control
Direction: higher = stronger binding
Constant ends, left off below: GGGAGUUCUACAGUCCGACGAUC … UGGAAUUCUCGGGUGCCAA
Target sequence (chain): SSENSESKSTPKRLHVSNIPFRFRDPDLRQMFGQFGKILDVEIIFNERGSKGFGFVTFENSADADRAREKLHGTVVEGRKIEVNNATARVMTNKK
| Oligonucleotide | RBNS enrichment (R) |
| --- | --- |
| UCCUGGUCAUUUAGUUCAGAACAGGUGUCCUUUCUCUGUGACCAAACUUACUUUCUCUAAAAUUCCUGCAGCAGACACCAGAGGCACCCCAGACCUAGACCUCCCUUCUA | 1.05 |
| AAGAAACAUUAGUCUUAGGAAUUCUUCAAAAAAUGGCAUCCCAAUGAAAAUAAAUUUGAUGACUAUAUUUUCAUGAAGGUUUGUGUCUUAUUUUAAAGUUAUAUUGAUAU | 0.612 |
| UAUGGACAGGGUCCCCUCCUGCUGUCCCUCCCUGCUCACACUUGCUCAGAUGCUGCAGUGCAGGGGCUUCAGCAUUCUUGAGUUCCUCCGUGUUAAUAAAAACAUCCUGU | 0.335 |
| GAGUCAUGAGGGUAGUGGGCUAAGUCGAGGGUCCAGCCUCUUCUGCCAGGAAGCCCUUCUUGCUUUUGAGAGAGGCUGUGACCACCCCCCAUCCUUCUCCCUACACUCCC | 0.282 |
| AAGCCACUGUUCCCUCUGGUGGCUUUUACAUGUCGGUGGCUGGCAUACCAUAUAGUAACAGCAGUAAUUCUGUCUCAGUGUGCUUGCAAGGAAACUUUUCUUAUAAAGAG | 0.263 |
| GCCCGUGUGAGAAGUGAAUGCUGGGACUCAGCCUUCAGACAGAGAGGACUGUAGGGAGGGCGGCAGGGGCCUGGAGAUCCUCCUGCAGACCACGCCCGUCCUGCCUGUGG | 0.326 |
| AAAGUAAAGUUGAAAAGAUCUAAGACAUCUAGUUACCUAGACUGUACCCAGCAGGUAUCACUUGGUAAAAAUACAAGAGCAAAGCCACUUGAGACUGAAGGUUCUUUAAA | 0.248 |
| CAAACUGAAGGUAACUAUACCUAGACUUAAAUCCUAAGGAAGCAAGUUACCUUCUGGGCAAAGGCUGCCUUCCCACCCUUCCUUUCACGGCACCACACUACAUCCCCAUG | 0.335 |
| GGCUGUGCGUGGCAGGACAGAAGCACUGUAAAGGGCUCUCCAGCCGCAGCUCAGCUGCACUGCGUUCCGAGGUGAAGUCUUGCCCCUGAAUUUUGCAAAAUGGGAAAGUG | 0.57 |
| CCCUGACUCUGGCUAAAAUUAUCUAAUUUCCAGAUGCUUUUGUAGAUGACUGAAGUAUUUGUGAGCCACAUAUUGGGAGUUCUAGAUUUGAGUGAAUGGCAGGAAAGGGC | 0.52 |
| GCAAAAUGUGUCUCAUGUUUCGCAACUCUUUUUUUCCCCCUCGCUCCCGCCUACCCCGUCGGCAUUUUCUUCUUCCACCAGCUUUUACUGAACUUUUUGGCACUGCUUUG | 1.4 |
| UGCUGACCUUGUGUGACCAGAGAUUUAAAGAUGAAAAAAACAAUAAAUGUGUUUACUUCUGCACCACUCUCAGAUGGAUAUGUUUUUGGCAGCGUGGUCCUCAGCUCCUG | 0.964 |

Mixed results
| Molecule | target | test | system | setting | how to read | measurement | value |
| --- | --- | --- | --- | --- | --- | --- | --- |
| PhoQ, residues 284 288 289 292 302 303 AGGLSV | PhoP, residues 12 14 15 18 19 FWNTL (Escherichia coli, UniProt P23836) | Sort-seq, refers to: YFP reporter | E. coli | PhoQ-PhoP variant library, added: 10 µM Mg2+ | reference: high Mg2+ state, higher = stronger signaling | fold induction | 0.589 |

Some of these lines once more (block 1):
| Oligonucleotide | E-score |
| --- | --- |
| TATGTGGA | -0.171 |
| TCAACTGA | -0.227 |
| ACCCGCTA | 0.235 |
| GCGTTGGA | 0.139 |
| GCGAAGAC | 0.167 |
| AGCTAGTC | -0.0853 |
| ATCTGGCG | -0.139 |
